# Measurements of several laboratories.
# Compare with care: the assays were run in different laboratories.
# MAP2K7: Dual specificity mitogen-activated protein kinase kinase 7 (MAP2K7, Homo sapiens, UniProt O14733)
# UniProt O14733, sequence (whole entry, looked up): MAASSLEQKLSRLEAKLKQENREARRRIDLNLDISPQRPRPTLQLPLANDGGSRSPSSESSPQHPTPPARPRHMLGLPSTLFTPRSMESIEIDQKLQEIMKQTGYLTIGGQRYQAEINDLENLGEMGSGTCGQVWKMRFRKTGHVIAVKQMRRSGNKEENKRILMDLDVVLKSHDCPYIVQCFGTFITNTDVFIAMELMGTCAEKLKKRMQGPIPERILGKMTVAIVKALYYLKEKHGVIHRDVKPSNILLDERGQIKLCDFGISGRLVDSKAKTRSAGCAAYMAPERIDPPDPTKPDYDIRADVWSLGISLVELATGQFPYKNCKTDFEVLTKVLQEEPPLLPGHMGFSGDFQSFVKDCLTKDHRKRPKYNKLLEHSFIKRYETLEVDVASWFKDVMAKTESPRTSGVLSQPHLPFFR
# 4'-phosphopantetheinyl transferase PptT: 4'-phosphopantetheinyl transferase PptT (Mycobacterium tuberculosis, UniProt O33336)
# UniProt O33336, sequence (whole entry, looked up): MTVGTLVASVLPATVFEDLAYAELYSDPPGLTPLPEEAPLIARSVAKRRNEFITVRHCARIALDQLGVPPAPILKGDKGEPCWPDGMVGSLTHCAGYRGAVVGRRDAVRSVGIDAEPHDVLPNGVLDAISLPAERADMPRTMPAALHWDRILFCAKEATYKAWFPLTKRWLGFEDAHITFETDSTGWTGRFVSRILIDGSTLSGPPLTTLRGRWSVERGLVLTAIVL
# UniProt Q56UN5, sequence (whole entry, looked up): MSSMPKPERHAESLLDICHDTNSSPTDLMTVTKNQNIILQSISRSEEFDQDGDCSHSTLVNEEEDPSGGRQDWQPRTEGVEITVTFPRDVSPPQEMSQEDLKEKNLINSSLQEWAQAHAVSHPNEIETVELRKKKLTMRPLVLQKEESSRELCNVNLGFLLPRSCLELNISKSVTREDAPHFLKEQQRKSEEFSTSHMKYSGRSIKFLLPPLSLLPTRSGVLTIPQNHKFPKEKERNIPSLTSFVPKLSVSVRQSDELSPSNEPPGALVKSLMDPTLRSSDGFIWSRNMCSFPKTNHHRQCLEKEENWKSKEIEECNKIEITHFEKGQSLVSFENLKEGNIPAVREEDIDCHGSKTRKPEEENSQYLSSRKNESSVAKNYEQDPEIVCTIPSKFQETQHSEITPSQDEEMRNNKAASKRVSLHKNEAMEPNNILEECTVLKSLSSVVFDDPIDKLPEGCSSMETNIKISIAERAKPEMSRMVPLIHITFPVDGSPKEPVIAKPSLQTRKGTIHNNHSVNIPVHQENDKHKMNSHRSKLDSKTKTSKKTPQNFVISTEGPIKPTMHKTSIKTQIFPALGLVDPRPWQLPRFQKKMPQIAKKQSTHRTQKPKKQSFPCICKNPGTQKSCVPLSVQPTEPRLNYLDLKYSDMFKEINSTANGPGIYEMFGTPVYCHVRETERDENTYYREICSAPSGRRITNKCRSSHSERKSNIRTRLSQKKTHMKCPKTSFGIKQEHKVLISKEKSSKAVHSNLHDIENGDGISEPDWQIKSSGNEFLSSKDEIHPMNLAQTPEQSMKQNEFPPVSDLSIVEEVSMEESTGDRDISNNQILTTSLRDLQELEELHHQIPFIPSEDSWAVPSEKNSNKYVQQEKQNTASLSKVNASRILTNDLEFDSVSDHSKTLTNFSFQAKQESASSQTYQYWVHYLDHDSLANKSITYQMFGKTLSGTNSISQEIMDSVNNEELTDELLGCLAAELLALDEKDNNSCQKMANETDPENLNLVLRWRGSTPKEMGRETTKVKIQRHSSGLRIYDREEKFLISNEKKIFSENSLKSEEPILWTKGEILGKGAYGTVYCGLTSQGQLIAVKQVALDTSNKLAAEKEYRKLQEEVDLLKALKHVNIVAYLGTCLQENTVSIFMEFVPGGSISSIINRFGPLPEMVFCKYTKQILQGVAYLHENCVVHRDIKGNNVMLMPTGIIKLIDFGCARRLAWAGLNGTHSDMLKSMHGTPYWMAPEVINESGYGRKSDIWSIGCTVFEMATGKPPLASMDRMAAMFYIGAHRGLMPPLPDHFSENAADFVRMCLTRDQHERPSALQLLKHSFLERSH
Structure (SMILES),tested on,assay,test system,conditions,measurement,value
CCCC[C@@H]1NC(=O)[C@H](Cc2ccc(O)cc2)NC(=O)[C@@H]2CCCN2C(=O)[C@H](CC(=O)O)NC(=O)[C@H](C)NC(=O)[C@H](Cc2ccccc2)NC(=O)[C@@H]2CSCCC(=O)N3CN(CN(C3)C(=O)CCSC[C@H](NC(C)=O)C(=O)N[C@@H](CC(C)(C)C)C(=O)N[C@@H](CCC(=O)O)C(=O)N[C@@H](CCC(=O)O)C(=O)N[C@H](CCCCNC(=O)CCc3cn(CCOCCOCCOCCN(CCOCCOCCOCCC(=O)N[C@H]4CSCCC(=O)N5CN6CN(C5)C(=O)CCSC[C@H](NC(=O)[C@@H](CC(=O)O)NC(=O)[C@H](Cc5cccc7ccccc57)NC(=O)[C@@H]5CCCN5C4=O)C(=O)N[C@@H](CCSC)C(=O)N[C@@H](CCCCNC(=N)N)C(=O)N[C@@H](CC(=O)O)C(=O)N[C@@H](Cc4c[nH]c5ccccc45)C(=O)N[C@@H](CO)C(=O)N[C@@H]([C@@H](C)O)C(=O)N4CCC[C@H]4C(=O)N4C[C@H](O)C[C@H]4C(=O)N[C@@H](Cc4c[nH]c5ccccc45)C(=O)N[C@H](C(N)=O)CSCCC6=O)CCOCCOCCOCCn4cc(CCC(=O)NCCCC[C@H]5NC(=O)[C@H](CCC(=O)O)NC(=O)[C@H](CCC(=O)O)NC(=O)[C@H](CC(C)(C)C)NC(=O)[C@@H](NC(C)=O)CSCCC(=O)N6CN7CN(C6)C(=O)CCSC[C@H](NC(=O)[C@H](Cc6ccc(O)cc6)NC(=O)[C@@H]6CCCN6C5=O)C(=O)N[C@@H](Cc5ccccc5)C(=O)N[C@@H](C)C(=O)N[C@@H](CC(=O)O)C(=O)N5CCC[C@H]5C(=O)N[C@@H](Cc5ccc(O)cc5)C(=O)N[C@@H](CCCC)C(=O)N[C@H](C(N)=O)CSCCC7=O)nn4)nn3)C(=O)N3CCC[C@H]3C(=O)N[C@@H](Cc3ccc(O)cc3)C(=O)N2)C(=O)CCSC[C@@H](C(N)=O)NC1=O,,,"rat, plasma","intravenous, 2 mg/kg",Vd,1.2 L/kg
CCOC(=O)c1c(NC(=O)CNC(C)C)sc2c1CCCCC2,,,"male mouse, plasma","intraperitoneal, 100 mg/kg, single dose",Tmax,15 min
Cc1nn(C)cc1-c1nc2c(N3CCN(Cc4ccc(Cl)cc4)CC3)c(Cl)cnc2[nH]1,MAP2K7,"binding, competition with immobilised ligand",,1 µM,remaining binding,100%
CC(C)C[C@H](NC(=O)[C@H](Cc1ccccc1)NC(=O)[C@H](Cc1ccccc1)NC(=O)Cc1ccc(-c2ccccc2)cc1)C(=O)N[C@@H](CCCCN)C(=O)N[C@@H](CCCNC(=N)N)C(=O)N[C@H](C(=O)N[C@@H](Cc1c[nH]c2ccccc12)C(=O)N[C@@H](CCCCN)C(=O)N[C@@H](CCCNC(=N)N)C(=O)O)C(C)C,,metabolic stability,"rat, liver microsomes",30 min,compound remaining,25.4%
CC(C)CC(=O)OC[C@H]1O[C@@](C#N)(c2ccc3c(N)ncnn23)[C@H](O)[C@@H]1O,,metabolic stability,"mouse, plasma",5 µM,half-life,0.321 min
CN1CCN(S(=O)(=O)c2cc([N+](=O)[O-])ccc2N(CCOS(C)(=O)=O)CCOS(C)(=O)=O)CC1,,,"female SCID mouse, plasma","intraperitoneal, 5 mg/kg",half-life,7.2 min
CCC[C@@](N)(CO)CCc1ccc(OCCCCCC(C)C)cc1,,,"dog, plasma","intravenous, 1 mg/kg",half-life,~1170 min
N=c1c2c(-c3ccccc3)c(-c3ccccc3)n(Cc3ccccc3)c2ncn1[C@H]1CC[C@H](O)CC1,,,"female minipig, plasma","intravenous, 0.25 mg/kg, single dose",AUC(0-t),14500 ng·h/mL
CC(C)(N)CNC(=O)O[C@@H]1CCC[C@]2(C1)OOC1(O2)C2CC3CC(C2)CC1C3 (stereo partly drawn),,,"male CD-1 mouse, plasma","intravenous, 3 mg/kg",half-life,43.4 min
Cc1ncsc1-c1ccc([C@H](C)NC(=O)[C@@H]2C[C@@H](O)CN2C(=O)[C@@H](NC(=O)CCN2CC3(CC(Nc4ccc(C(=O)NCCCn5cc(-c6ccc7c(c6)CCN7C(=O)Cc6cccc(OC(F)(F)F)c6)c6c(N)ncnc65)cn4)C3)C2)C(C)(C)C)cc1,,metabolic stability,"mouse, liver S9",1 µM,half-life,26.4 min
COc1ncccc1-c1cnn2ccc(N3CCN(C(=O)OC(C)C)CC3)nc12,MAP2K7,"binding, competition with immobilised ligand",,1 µM,remaining binding,92%
Cl.Cn1c(=O)n(CCCCN2CCC3(CC2)OCc2ccccc23)c2ccccc21,,,"male Sprague-Dawley rat, plasma","intravenous, 5 mg/kg",clearance,21.7 mL/min/kg
CC[C@@H]1NC(=O)[C@H](CC(C)C)NC(=O)[C@H](CC(C)C)NC(=O)CNC(=O)[C@@H](Cc2ccc(O)cc2)NC(=O)[C@H]2CCCN2C(=O)[C@H](CCCNC(=N)N)NC(=O)[C@H](C(C)C)NC(=O)[C@H](CC(C)C)NC(=O)[C@H]([C@@H](C)CC)NC1=O,,,aqueous buffer,pH 7.4,solubility,684 µM
NC(=S)c1cncc(Cn2c(=S)[nH]c3cc(CO)c(Cl)cc3c2=O)c1,4'-phosphopantetheinyl transferase PptT,"enzyme activity, inhibitor, FP",,,IC50,238 nM
CC[C@H](C)[C@H]1C(=O)N[C@@H](Cc2ccc(O)cc2)C(=O)N2CCC[C@H]2C(=O)N[C@H]([C@H](C)O)C(=O)N[C@@H](CC(C)C)C(=O)N[C@@H](C(C)C)C(=O)N[C@@H](C)C(=O)N[C@@H](C)C(=O)N[C@@H](CO)C(=O)N[C@@H](CCC(=O)O)C(=O)N[C@H](CC(=O)O)C(=O)N[C@H](C(=O)O)CSSC[C@H](N)C(=O)N1C,,,aqueous buffer,"18 h, pH 7.4",thermodynamic solubility,678 µM
[2H]c1c([2H])c([C@]2([2H])CCCN2C(=O)C(C)(C)Oc2ccc3cn[nH]c3c2)c([2H])c([2H])c1C([2H])([2H])[2H],"MAP3K19 (Homo sapiens, UniProt Q56UN5)","binding, competition with immobilised ligand",,1 µM,remaining binding,97%
CC[C@H](C)[C@H]1C(=O)N[C@@H](Cc2ccccc2)C(=O)N[C@H](C(=O)O)CSCC(=O)N[C@H](Cc2ccc(O)cc2)C(=O)NCC(=O)N[C@@H](CC(C)C)C(=O)N2CCC[C@H]2C(=O)N[C@@H](CC(C)C)C(=O)N[C@@H](CC(C)C)C(=O)N[C@@H](C)C(=O)N[C@@H](C)C(=O)N1C,,,aqueous buffer,pH 7.4,solubility,758 µM
C/C=C1/CN2CC[C@@]34c5cc(O)ccc5N(C)[C@]35OC[C@@]4(C(=O)OC)[C@H]1C[C@H]25,,,"male Sprague-Dawley rat, plasma","intravenous, 1 mg/kg",clearance,60 mL/min/kg
CC(C)C[C@H]1C(=O)N[C@@H]([C@@H](C)O)C(=O)N[C@@H](CO)C(=O)N[C@@H](C)C(=O)N[C@H]([C@H](C)O)C(=O)N2CCC[C@H]2C(=O)N(C)[C@@H](CC(C)C)C(=O)N[C@H](Cc2ccc(O)cc2)C(=O)N[C@H](Cc2ccccc2)C(=O)N[C@H](C(C)C)C(=O)NCC(=O)N1C,,,aqueous buffer,"18 h, pH 7.4",solubility,182 µM
CCCC[C@@H]1NC(=O)[C@H](Cc2ccc(O)cc2)NC(=O)[C@@H]2CCCN2C(=O)[C@H](CC(=O)O)NC(=O)[C@H](C)NC(=O)[C@H](Cc2ccccc2)NC(=O)[C@@H]2CSCCC(=O)N3CN(CN(C3)C(=O)CCSC[C@@H](C(=O)N[C@@H](CNC(=O)CCc3cn(CCOCCOCCOCCN(CCOCCOCCOCCC(=O)N[C@H]4CSCCC(=O)N5CN6CN(C5)C(=O)CCSC[C@H](NC(=O)[C@@H](CC(=O)O)NC(=O)[C@H](Cc5cccc7ccccc57)NC(=O)[C@@H]5CCCN5C4=O)C(=O)N[C@@H](CCSC)C(=O)N[C@@H](CCCCNC(=N)N)C(=O)N[C@@H](CC(=O)O)C(=O)N[C@@H](Cc4c[nH]c5ccccc45)C(=O)N[C@@H](CO)C(=O)N[C@@H]([C@@H](C)O)C(=O)N4CCC[C@H]4C(=O)N4C[C@H](O)C[C@H]4C(=O)N[C@@H](Cc4c[nH]c5ccccc45)C(=O)N[C@H](C(N)=O)CSCCC6=O)CCOCCOCCOCCn4cc(CCC(=O)NC[C@H](NC(=O)[C@@H]5CSCCC(=O)N6CN7CN(C6)C(=O)CCSC[C@H](NC(=O)[C@H](Cc6ccc(O)cc6)NC(=O)[C@@H]6CCCN6C(=O)[C@@H](C)NC(=O)[C@H](CCC(=O)O)NC(=O)[C@@H]6CCCN6C(=O)[C@H](CC(C)(C)C)NC(=O)[C@@H](NC(C)=O)CSCCC7=O)C(=O)N[C@@H](Cc6ccccc6)C(=O)N[C@@H](C)C(=O)N[C@@H](CC(=O)O)C(=O)N6CCC[C@H]6C(=O)N[C@@H](Cc6ccc(O)cc6)C(=O)N[C@@H](CCCC)C(=O)N5)C(N)=O)nn4)nn3)C(N)=O)NC1=O)C(=O)CCSC[C@H](NC(C)=O)C(=O)N[C@@H](CC(C)(C)C)C(=O)N1CCC[C@H]1C(=O)N[C@@H](CCC(=O)O)C(=O)N[C@H](C)C(=O)N1CCC[C@H]1C(=O)N[C@@H](Cc1ccc(O)cc1)C(=O)N2,,,"rat, plasma","intravenous, 2 mg/kg",Vd,1.4 L/kg
CC(C)C[C@H]1C(=O)N[C@@H](C)C(=O)N[C@@H](CO)C(=O)N[C@@H](C(C)C)C(=O)N(C)[C@@H](CC(C)C)C(=O)N[C@H](C)C(=O)N[C@H](C(C)C)C(=O)N2CCC[C@@H]2C(=O)N[C@H](Cc2ccc(O)cc2)C(=O)NCC(=O)N1C,,,aqueous buffer,"18 h, pH 7.4",thermodynamic solubility,813 µM
Cc1[nH]c(C)c(S(=O)(=O)Nc2ccc(S(F)(F)(F)(F)F)cc2)c1C(=O)N1CCC(F)(F)C1,,,"mouse, plasma","intraperitoneal, 40 mg/kg",Tmax,60 min
Cc1ccc(Cn2c(=S)[nH]c3ccc(Cl)cc3c2=O)cn1,4'-phosphopantetheinyl transferase PptT,"enzyme activity, inhibitor, FP",,,IC50,1260 nM
CC(C)C[C@@H]1NC(=O)[C@H]([C@@H](C)O)NC(=O)[C@H](C(C)C)NC(=O)[C@H](CC(C)C)NC(=O)[C@@H](C(C)C)N(C)C(=O)[C@H]2CCCN2C(=O)[C@@H](N)CSSC[C@@H](C(=O)O)NC(=O)[C@H]2CCCN2C(=O)[C@H](Cc2ccccc2)NC1=O,,,aqueous buffer,"18 h, pH 7.4",solubility,692 µM

# For quick reference, copied from above:
Structure (SMILES),tested on,assay,test system,conditions,measurement,value
CC[C@H](C)[C@H]1C(=O)N[C@@H](Cc2ccccc2)C(=O)N[C@H](C(=O)O)CSCC(=O)N[C@H](Cc2ccc(O)cc2)C(=O)NCC(=O)N[C@@H](CC(C)C)C(=O)N2CCC[C@H]2C(=O)N[C@@H](CC(C)C)C(=O)N[C@@H](CC(C)C)C(=O)N[C@@H](C)C(=O)N[C@@H](C)C(=O)N1C,,,aqueous buffer,pH 7.4,solubility,758 µM
C/C=C1/CN2CC[C@@]34c5cc(O)ccc5N(C)[C@]35OC[C@@]4(C(=O)OC)[C@H]1C[C@H]25,,,"male Sprague-Dawley rat, plasma","intravenous, 1 mg/kg",clearance,60 mL/min/kg
